Measurements of several laboratories.
Every numbered part comes from another study and shows a few of its results, in no order.

Study 1 — method: RNA Bind-n-Seq; molecule type: RNA; medium: in vitro; tested at: 1 µM; notes: whole 134-nt RNA, ends assumed; together with: 150 mM KCl; baseline: input library; direction: higher = stronger binding
Target: Ras GTPase-activating protein-binding protein 1, RRM domain (G3BP1, Homo sapiens, UniProt Q13283)
Sequence of UniProt Q13283 (whole entry, looked up): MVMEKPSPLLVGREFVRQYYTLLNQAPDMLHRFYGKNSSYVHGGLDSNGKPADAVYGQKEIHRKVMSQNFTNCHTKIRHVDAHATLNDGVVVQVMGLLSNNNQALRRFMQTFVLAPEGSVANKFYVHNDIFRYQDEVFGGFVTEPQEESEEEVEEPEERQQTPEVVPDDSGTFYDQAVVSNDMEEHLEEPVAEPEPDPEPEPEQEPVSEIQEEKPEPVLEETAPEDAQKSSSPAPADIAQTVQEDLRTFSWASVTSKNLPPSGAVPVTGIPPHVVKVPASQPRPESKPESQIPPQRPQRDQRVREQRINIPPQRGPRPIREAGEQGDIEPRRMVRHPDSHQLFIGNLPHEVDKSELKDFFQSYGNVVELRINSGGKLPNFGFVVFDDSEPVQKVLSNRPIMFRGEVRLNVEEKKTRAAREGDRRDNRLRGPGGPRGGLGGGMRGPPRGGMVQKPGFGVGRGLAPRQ
Constant ends, left off below: GGGAGUUCUACAGUCCGACGAUC … UGGAAUUCUCGGGUGUCAAGG
Sequence	log2 enrichment
UGGGCGGCUGCGAGAUGAGAACGGACGACCCUACUCGCCCAGUCAGUAUGCGCUCCAGUACGCCGGGGACGGCAGUGUCCUCCUCAUCCC	-0.324
CACAGACAACACGCACCCACACAGACACAGAGGGAAGGGGUUGGGAUGGGGACAGGGUGCACAGCAGGGCGGGGUAAGACCCCAGCCCCU	-0.271
UAACUUUAGAGGAGGAUCUGAUGGAUAUGGCAGUGGACGUGGAUUUGGGGAUGGCUAUAAUGGGUAUGGAGGAGGACCUAGAGGUGGCAA	-0.481
CUCAAGUCCUGUGCUACACAUCGUAUGUACCGAAUCGGGGUUGGGGUUGGUUGGAAAGUAUUAUGUUACGCCGUUCGGAUCUGCACUUCC	-0.247
GCAGGAAGUAAAAACAAAUGGAAAUGCUUCGGAUAGUGGCAGGGGUCGGGGUUGCUAAGGAAAGGGUGGGAUGGGAGUGGGUAAAGAGUU	0.899
UGGCCCUGGUGGCAUGCGGGGACGAAGAGGUGGCCUCAUGGAUCGUGGUGGUCCCGGUGGAAUGUUCAGAGGUGGCCGUGGUGGAGACAG	1.07
CACUGACAACACGCACCCACACAGACACAGAGGGAAGGGGUUGGGAUGGGGACAGGGUGCACAGCAGGGCGGGGUAGGACCCCAGCCCCU	0.0932
GCAGGAAGUAAAAACAAAUGGAAAUGCUUCGGAUAGUGGCAGGGGUGGGGGUUGCUAAGGAAAGGGUGGGAUGGGAGUGGGUAAAUAGUU	0.844
UAACUUUAGAGGAGGAUCUGAUGGAUGUGGCAGUGGACGUGGAUUUGGGGAUGGCUAUAAUGGGUAUGGAGGAGGACCUGGAGGUGGCAA	-0.942
AAGUCCUGUGCUACACAUCGUAUGUACCGAAUCGGGAAAAGGAAAAGGGGAAAAGGAAAGUAUUAUGUUACGCCGUUCGGAUCUGCACUU	-0.112

Study 2 — method: protein-binding microarray; molecule type: double-stranded DNA, one strand shown; medium: in vitro; tested at: 2200 nM top; notes: 60-bp whole probe; together with: salmon DNA 0.4 mg/ml; baseline: random background probes; direction: higher = stronger binding; constant ends, left off below: GCCTAGCAC … GTCTTGATTCGCTTGACGCTGCTG
Target: Interferon regulatory factor 7, full length, phosphomimetic (IRF7, Homo sapiens, UniProt Q92985, residues 1-503, S471D/S472D/S475D/S476D/S477D/S483D/S484D/S487D)
Residues (chain): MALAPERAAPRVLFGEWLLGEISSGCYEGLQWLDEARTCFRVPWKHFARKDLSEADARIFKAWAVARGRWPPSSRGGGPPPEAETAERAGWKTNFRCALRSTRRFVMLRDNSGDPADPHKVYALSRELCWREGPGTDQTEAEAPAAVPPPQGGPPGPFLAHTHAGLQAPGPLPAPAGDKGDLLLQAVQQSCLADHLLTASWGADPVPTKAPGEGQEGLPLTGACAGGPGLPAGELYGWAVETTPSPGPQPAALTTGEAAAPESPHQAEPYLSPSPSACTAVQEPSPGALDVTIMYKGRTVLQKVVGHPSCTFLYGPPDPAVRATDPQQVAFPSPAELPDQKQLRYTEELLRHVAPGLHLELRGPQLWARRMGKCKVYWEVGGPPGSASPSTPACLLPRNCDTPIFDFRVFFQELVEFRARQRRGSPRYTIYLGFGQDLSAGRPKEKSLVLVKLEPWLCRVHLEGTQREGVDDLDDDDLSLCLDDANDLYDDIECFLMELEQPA
Sequence	fitted relative affinity [z-score]
GGGTTCAAGAAGTAGGAGAAGTGCTAG	-0.457
GACGATTTCAATTTCGAGACGTGCTAG	2.4
GACGATTTCTGGACTGGAGACGTGCTA	0.661
GACGGTATCCTTCTCCTGCCGTGCTAG	0.764
TTAGAACCGGGGACTGGATTAGTGCTA	-0.679
TTAGATTTCAGTCTCGCTTAGTGCTAG	0.984
TTAGGTATCCTTATCCTGTAGTGCTAG	0.73
TCAGATTGGTTGAACATACTGTGCTAG	0.547
TTAGGTCTCCTCCTCCTTTAGTGCTAG	0.72
GACGGCCTGGGTATCGGGACGTGCTAG	-1.21
TTAGGTTTCGACTTTCGGTGAGTGCTA	7.38
TTAGGTATTGGGTTTCGGTTAGTGCTA	3.88
GACGAGCTGGGGTTTCGAGACGTGCTA	0.912
TCACTTTACTCACTCGGACTGTGCTAG	2.65
GACTGTATCCTTCTCCTGACGTGCTAG	1.7
GACTGTCTCGGTATCGGGACGTGCTAG	0.228
TGAGGTATCCTTATCCTTTAGTGCTAG	0.222
TCATGACTCTGCCTCTAACTGTGCTAG	1

Study 3 — method: protein binding microarray; molecule type: double-stranded DNA, one strand shown; medium: in vitro; tested at: not given; baseline: not given; direction: higher = stronger binding
Target: Histone acetyltransferase KAT6A, winged helix 1, GST fusion (KAT6A, Homo sapiens, UniProt Q92794, residues 1-85)
Notes: 8-mer, flanks averaged, mean of 2 arrays, mostly near background
Construct (chain): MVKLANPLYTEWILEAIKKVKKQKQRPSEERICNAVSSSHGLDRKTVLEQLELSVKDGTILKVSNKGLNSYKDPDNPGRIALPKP
Sequence	E-score
CTATGCTA	-0.0817
CCCGATGC	0.235
ACTGTACC	0.0333
GACAGTCA	0.00042
TGTGCGAA	0.017
CGCTGATA	0.201
GATAACCA	-0.107
ACCAGGGC	0.0307
CAATCGGA	-0.0937
GAACATAA	-0.165
ACGCTATG	0.181
TAAGTACA	-0.0952
AGATCCCG	0.218
ATATGTAC	-0.0133
CACGCTCG	0.0273
AACCGTGC	0.0555
AAAGAGTT	-0.25
GATGAGCA	-0.301
AAAGTCAT	-0.281
AACTTTTC	-0.034
ACATACCA	-0.105
CGGGAGAG	0.149
AGATTTAA	-0.052
CGCCGGCG	0.486
TAATTGAA	-0.0502

Study 4 — method: RNA Bind-n-Seq; molecule type: RNA; medium: in vitro; tested at: not given; baseline: input RNA pool; direction: higher = stronger binding
Target: RING finger protein unkempt homolog, zinc fingers 1-6, GST-SBP tag (UNK, Homo sapiens, UniProt Q9C0B0, residues 30-357)
Sequence of UniProt Q9C0B0 (30-357, looked up): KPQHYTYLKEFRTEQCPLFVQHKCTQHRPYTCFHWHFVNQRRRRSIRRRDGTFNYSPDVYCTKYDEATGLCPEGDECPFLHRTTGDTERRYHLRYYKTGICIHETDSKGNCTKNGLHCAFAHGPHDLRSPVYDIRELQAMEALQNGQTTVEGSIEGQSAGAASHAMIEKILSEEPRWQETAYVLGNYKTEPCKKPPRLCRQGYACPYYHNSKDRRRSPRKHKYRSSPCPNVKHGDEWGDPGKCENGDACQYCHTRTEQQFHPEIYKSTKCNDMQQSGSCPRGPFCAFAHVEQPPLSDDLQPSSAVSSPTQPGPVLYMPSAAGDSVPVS
Notes: RNA with constant flanks, human and mouse sites, ends assumed
Constant ends, left off below: GGGAGUUCUACAGUCCGACGAUC … CAACAGAGGAUUGAGCAUCA
Sequence	bound/input enrichment
AUCAUUGAAGCAUUCUAUGGAGGCUCCCAUAAACAGCUGGUGGAUCUUCUUCAAGAAGAGUUAGGAGACUGUGUCGUUUAUACCCUUCCUGCAAAGAAAUGGCAUUGGAGAGCCCGGACA	0.316 ratio
CGGAAUACUCCUUAUAAAACCCUGGAACCUGUUAAACCCCCAACAGUUCCUAAUGACUAUAUGACCAGUCCUGCUAGGCUUGGAAGUCAGCAUAGUCCAGGCAGGACAGCAUCUUUAAAU	0.23 ratio
AGGUUGGUGUGUGUGUGAGAAUGCCAACAGACACUGAUGAGUCAGGGUAACGUCUUUUCUGUAAAUAUAUAAGUUUAGGCACUGACAUAAACUGUUCCAUCUAAUUGAUUUUUUCUCCUC	0.213 ratio
GACAGCCGGCUGAAGAUGAGAGCAGAGCUGGGCGAGUACAUCCGGAGGAUCACCACUGUGCCGCUGCCCACUGCGCCCAACGUCCCCAUCAUUGACUAUGAGGUGUCCAUCAGUGGAGAG	0.102 ratio
UAUAUGUAUGUUUUCAUUCCUGUUUUGUACGAGUGCCUCAUUUUGUAGUCAUGAAAGUAACAUAGUACCUUAAAUAAAAAUGUAAUGACUAAUCUAAGGUCUAGGAAUAACUAUUGUAGA	1.3 ratio
UUUAUCGUCAAACUGCACUAUGCUUUUCAGACUGAAGGGAAGCUGUACUUAAUAUUGGAUUUCCUCAGGGGAGGAGAUGUCUUCACAAGAUUAUCCAAAGAGGUUCUUUUUACAGAGGAA	0.188 ratio
GAUGUCACUCAAGAGCAGCUGGGUGGUGCCAAGACCCACACCACUGUGUCAGGUGUGGCCCAUAGAGCUUUCGACAAUGAUGUUGAUGCUCUGUGUAACCUGCGUGAAUUCUUCAAUUUC	0.078 ratio
AUCACACGAGAACUGAGCAUUUCCAAACACUUGGCUCAAAACCUUAUUGAUGAUGGUCCUGUAAGACCUUCUGUAUGGAAAAAGCAUGGUGUUGUAAAUACACUUAGCUCCUCUCUUCCU	0.03 ratio
UGAAGAACAUUGUUGCUGACAAAGGAUUUUCUGGGUUAUUUACAGGUCUAAUUCCUCGAUUAGUUAAAAUUGUUCCUGCUUGUGCCAUUAUGAUCAGUUCAUAUGAAUUAGGAAAGUCGU	1.33 ratio
CCCCACAUACCAUCUGUAGAGUUGGAACUGCAUUCUUUUAAAGUUUUAUAUGCAUAUAUUUUAGGGCUGUAGACUUACUUUCCUAUUUUCUUUUCCAUUGCUUAUUCUUGAGCACAAAAU	0.786 ratio
AAUGCAGUUAUAUUUGGACCAGAAGGGACACCCUUUGAAGAUGGUACUUUUAAACUAGUAAUAGAAUUUUCUGAAGAAUAUCCAAAUAAACCACCAACCGUUAGGUUUUUAUCCAAAAUG	5.09 ratio
